Experimental data collected from several papers.
Each numbered part is a random draw from the data of one study; scales do not carry over between parts.

Set 1
Target: PABPC1L2, full length, GST fusion (mouse, UniProt A0ABA7IW68)
Technique: RNAcompete
Molecule type: RNA
Matrix: in vitro
Tested at: 20 nM
Setting: 7-mer, probes averaged, single round
Reference: mean of 7-mers
Direction: higher = stronger binding
Construct (chain): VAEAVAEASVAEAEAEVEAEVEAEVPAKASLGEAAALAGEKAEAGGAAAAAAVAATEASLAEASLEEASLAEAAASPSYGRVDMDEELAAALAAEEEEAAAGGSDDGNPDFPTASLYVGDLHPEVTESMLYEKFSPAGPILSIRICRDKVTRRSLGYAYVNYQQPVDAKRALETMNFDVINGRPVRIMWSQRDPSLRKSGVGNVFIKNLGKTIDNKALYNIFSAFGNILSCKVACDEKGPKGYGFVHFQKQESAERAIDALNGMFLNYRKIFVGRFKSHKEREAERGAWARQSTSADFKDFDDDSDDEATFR
`GUACAGU` has a 7-mer Z-score of -0.311.
For `CAAAUAU`, the 7-mer Z-score was 0.664.
For `UGUGGCU`, the 7-mer Z-score was -0.171.

Set 2
Target: Interferon regulatory factor 7, full length, phosphomimetic (IRF7, Homo sapiens, UniProt Q92985, residues 1-503, S101K/S471D/S472D/S475D/S476D/S477D/S483D/S484D/S487D)
UniProt Q92985, sequence (whole entry, unmodified, looked up): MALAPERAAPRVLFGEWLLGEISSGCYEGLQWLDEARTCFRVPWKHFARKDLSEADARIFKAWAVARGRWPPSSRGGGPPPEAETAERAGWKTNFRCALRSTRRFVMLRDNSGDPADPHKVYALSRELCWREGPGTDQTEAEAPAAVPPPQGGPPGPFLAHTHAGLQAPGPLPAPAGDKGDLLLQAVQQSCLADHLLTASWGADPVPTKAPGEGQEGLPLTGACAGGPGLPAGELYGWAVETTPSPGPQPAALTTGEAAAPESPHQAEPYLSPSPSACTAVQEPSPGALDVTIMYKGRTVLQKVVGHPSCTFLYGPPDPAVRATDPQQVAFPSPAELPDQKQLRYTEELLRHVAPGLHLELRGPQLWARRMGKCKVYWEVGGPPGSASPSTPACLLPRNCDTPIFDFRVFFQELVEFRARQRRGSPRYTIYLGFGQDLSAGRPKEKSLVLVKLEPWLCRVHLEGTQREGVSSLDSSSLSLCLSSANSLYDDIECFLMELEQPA
Technique: protein-binding microarray
Molecule type: double-stranded DNA, one strand shown
Matrix: in vitro
Tested at: 250 nM
Setting: 60-bp whole probe
Together with: salmon DNA 0.4 mg/ml
Reference: random background probes
Direction: higher = stronger binding
Shared flanks, not repeated: GCCTAGCAC … GTCTTGATTCGCTTGACGCTGCTG
For `TCATACTTCTCTTTTTGACTGTGCTAG`, the log fluorescence was 1.09 z-score.
For `TCATTATTAAAACTTCATACTGTGCTA`, the log fluorescence was 0.941 z-score.
With `TTAGATCTGAGTATCGATTAGTGCTAG` the log fluorescence was 0.715 z-score.
`CTAGATATCAGTTTCGATTAGTGCTAG` has a log fluorescence of 8.93 z-score.
With `GACGGTATCCTTATTCTGACGTGCTAG` the log fluorescence was 0.164 z-score.

Set 3
Target: Histone acetyltransferase KAT6A, both winged helices, GST fusion (KAT6A, Homo sapiens, UniProt Q92794, residues 1-181)
Technique: protein binding microarray
Molecule type: double-stranded DNA, one strand shown
Matrix: in vitro
Tested at: not given
Setting: 8-mer, flanks averaged, mean of 2 arrays, mostly near background
Reference: not given
Direction: higher = stronger binding
Target sequence (chain): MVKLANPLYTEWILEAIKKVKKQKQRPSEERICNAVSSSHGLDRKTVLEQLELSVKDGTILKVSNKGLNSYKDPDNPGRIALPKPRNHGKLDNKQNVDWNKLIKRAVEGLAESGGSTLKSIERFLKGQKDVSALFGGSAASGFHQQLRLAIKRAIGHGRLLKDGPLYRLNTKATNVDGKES
The E-score of `AATTGATA` is reported as -0.111.
`ACCGGCAT` gave an E-score of 0.276.
`CACTTCAG` has an E-score of -0.199.
`GAAGACCC` has an E-score of -0.181.

Single results of other studies
For `PhoQ, residues 284 288 289 292 302 303 ASASEQ`, the fold induction was 1.27 (PhoP, residues 12 14 15 18 19 LHSVQ (Escherichia coli, UniProt P23836); Sort-seq, refers to: YFP reporter; E. coli; PhoQ-PhoP variant library, together with: 10 µM Mg2+; reference: high Mg2+ state, higher = stronger signaling).

A few entries again (set 1):
`GUACAGU` has a 7-mer Z-score of -0.311.
